{"data": "Measured values pooled from the literature", "note": "Every numbered part comes from another study and shows a few of its results, in no order.", "chain of UniProt P42336 (whole entry, unmodified, looked up)": "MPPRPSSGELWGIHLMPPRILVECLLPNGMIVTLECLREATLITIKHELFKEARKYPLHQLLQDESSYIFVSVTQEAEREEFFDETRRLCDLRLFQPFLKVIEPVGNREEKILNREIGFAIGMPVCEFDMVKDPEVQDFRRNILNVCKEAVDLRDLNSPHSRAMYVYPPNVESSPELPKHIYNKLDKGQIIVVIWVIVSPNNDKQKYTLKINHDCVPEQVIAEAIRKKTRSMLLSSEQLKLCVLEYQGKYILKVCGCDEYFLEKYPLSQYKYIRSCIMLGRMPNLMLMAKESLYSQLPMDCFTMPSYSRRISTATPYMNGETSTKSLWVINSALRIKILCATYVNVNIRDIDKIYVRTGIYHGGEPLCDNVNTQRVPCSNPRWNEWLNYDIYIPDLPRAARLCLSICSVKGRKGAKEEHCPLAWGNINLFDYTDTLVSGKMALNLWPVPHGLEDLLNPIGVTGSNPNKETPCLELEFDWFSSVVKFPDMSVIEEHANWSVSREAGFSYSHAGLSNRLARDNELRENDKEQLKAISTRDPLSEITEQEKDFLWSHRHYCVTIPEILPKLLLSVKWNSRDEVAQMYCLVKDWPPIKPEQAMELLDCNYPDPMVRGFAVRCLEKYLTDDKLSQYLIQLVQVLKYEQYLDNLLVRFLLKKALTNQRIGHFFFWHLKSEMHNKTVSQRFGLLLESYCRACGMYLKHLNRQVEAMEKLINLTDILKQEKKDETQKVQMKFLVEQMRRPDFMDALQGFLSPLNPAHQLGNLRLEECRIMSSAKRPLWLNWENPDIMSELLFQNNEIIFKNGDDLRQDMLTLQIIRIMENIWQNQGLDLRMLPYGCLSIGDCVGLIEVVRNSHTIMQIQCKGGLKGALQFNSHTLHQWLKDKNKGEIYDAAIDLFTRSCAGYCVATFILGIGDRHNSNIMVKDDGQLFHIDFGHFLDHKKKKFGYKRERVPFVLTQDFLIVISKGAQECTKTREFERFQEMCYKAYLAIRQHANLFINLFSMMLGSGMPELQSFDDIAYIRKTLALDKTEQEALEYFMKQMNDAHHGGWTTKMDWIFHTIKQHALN", "chain of UniProt P16591 (whole entry, looked up)": "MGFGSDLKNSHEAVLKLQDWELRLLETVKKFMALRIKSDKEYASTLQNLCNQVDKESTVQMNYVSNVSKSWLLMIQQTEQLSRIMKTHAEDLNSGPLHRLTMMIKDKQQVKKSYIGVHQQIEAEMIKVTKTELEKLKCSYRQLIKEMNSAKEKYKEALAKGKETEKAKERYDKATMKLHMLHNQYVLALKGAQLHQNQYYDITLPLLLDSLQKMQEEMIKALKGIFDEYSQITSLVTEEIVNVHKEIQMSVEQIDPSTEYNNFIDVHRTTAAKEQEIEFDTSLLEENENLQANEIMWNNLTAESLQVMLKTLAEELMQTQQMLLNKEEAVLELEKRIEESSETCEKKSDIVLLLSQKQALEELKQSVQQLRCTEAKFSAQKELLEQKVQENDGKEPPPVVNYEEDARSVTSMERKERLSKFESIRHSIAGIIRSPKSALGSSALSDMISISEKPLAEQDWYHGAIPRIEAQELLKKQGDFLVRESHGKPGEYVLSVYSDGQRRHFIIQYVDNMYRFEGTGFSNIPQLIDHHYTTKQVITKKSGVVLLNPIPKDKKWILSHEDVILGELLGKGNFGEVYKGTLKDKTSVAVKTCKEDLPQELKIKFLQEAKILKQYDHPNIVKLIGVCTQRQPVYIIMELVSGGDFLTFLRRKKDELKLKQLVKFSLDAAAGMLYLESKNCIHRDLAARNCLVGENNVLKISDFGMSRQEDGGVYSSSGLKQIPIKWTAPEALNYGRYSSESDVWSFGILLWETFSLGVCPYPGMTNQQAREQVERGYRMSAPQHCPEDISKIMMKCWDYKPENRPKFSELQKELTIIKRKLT", "chain of UniProt P07948 (whole entry, looked up)": "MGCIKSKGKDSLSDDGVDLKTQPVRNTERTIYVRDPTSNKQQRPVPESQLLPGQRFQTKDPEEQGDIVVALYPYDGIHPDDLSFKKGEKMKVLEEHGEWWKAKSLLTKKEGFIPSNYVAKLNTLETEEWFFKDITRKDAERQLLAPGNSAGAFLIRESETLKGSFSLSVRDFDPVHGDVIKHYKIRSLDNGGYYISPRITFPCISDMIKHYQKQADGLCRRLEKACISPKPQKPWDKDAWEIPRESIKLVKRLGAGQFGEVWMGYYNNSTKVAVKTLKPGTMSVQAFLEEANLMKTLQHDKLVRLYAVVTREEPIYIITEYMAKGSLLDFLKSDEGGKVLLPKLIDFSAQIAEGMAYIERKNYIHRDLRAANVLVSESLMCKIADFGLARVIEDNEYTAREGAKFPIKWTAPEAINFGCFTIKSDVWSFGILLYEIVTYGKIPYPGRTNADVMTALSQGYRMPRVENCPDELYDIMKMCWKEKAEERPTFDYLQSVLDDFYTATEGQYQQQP", "chain of UniProt Q2M2I8 (whole entry, looked up)": "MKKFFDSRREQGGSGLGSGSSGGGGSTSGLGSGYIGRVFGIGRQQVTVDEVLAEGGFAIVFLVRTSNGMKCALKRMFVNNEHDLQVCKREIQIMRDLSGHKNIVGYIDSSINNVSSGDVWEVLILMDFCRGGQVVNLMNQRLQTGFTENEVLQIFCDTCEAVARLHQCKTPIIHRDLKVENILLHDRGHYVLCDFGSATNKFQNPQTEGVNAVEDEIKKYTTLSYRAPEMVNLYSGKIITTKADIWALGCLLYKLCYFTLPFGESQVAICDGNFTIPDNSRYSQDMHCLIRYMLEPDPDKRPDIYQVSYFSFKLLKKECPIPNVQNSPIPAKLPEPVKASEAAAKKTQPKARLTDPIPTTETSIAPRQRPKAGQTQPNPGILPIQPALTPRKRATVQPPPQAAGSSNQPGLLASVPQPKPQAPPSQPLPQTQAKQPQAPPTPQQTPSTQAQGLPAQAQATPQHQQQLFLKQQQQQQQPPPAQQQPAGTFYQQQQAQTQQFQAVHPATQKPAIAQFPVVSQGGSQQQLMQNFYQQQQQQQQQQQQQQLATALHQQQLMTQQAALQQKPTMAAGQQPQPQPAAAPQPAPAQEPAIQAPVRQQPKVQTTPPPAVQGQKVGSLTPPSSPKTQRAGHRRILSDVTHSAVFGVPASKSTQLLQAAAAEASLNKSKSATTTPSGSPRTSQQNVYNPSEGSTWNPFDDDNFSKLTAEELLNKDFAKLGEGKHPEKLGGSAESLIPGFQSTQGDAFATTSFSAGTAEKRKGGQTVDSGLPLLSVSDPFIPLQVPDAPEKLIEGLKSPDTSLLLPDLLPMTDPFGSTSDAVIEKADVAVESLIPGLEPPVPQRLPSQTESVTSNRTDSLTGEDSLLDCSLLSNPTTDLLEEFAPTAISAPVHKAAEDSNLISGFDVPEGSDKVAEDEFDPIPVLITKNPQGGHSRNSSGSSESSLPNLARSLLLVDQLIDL", "chain of UniProt Q86SG6 (whole entry, looked up)": "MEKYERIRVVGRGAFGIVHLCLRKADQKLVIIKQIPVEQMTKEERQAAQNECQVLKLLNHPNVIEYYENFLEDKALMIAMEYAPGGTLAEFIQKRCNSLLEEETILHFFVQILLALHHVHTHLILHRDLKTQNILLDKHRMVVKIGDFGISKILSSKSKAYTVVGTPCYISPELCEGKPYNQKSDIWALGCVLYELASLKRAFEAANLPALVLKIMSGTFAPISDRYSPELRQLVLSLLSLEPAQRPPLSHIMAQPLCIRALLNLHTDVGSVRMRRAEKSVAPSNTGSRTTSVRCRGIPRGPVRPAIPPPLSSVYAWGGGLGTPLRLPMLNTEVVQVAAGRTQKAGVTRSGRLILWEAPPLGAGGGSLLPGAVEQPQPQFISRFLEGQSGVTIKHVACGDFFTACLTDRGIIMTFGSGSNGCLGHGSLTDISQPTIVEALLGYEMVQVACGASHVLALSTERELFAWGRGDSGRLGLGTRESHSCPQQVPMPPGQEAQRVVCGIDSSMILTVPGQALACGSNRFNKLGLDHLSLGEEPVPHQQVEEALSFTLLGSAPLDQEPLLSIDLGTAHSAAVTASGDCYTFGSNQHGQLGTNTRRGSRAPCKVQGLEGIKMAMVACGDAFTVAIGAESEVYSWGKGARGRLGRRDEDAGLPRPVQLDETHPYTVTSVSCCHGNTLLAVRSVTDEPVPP", "chain of UniProt Q8N752 (whole entry, looked up)": "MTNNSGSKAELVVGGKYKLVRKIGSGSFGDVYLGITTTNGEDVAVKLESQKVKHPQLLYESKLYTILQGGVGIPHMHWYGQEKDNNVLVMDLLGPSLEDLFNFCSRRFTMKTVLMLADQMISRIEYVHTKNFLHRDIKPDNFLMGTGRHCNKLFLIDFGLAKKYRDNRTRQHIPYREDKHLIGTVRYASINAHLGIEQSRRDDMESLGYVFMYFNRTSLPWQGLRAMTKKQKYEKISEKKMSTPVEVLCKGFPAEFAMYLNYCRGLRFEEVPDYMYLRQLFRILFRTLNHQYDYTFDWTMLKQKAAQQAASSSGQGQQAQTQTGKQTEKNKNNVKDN"}
{"data": "Study 1", "technique": "PRP chromatography estimate", "medium": "1,9-decadiene/PBS", "pH": "7.4"}
{"SMILES": "CC(C)C[C@@H]1NC(=O)[C@H](CC(C)C)NC(=O)[C@@H](C(C)C)NC(=O)[C@@H](C)NC(=O)[C@H](C(C)C)NC(=O)[C@H](Cc2cscn2)NC(=O)[C@H](C)NC1=O", "logD": -2.83}
{"SMILES": "CC(C)C[C@@H]1NC(=O)[C@H](Cc2cscn2)NC(=O)[C@H](CCC(=O)N2CCCC2)NC(=O)[C@@H](CCC(=O)N2CCCC2)NC(=O)[C@H](CC(C)C)NC(=O)[C@@H](CC(C)C)NC(=O)[C@H](CC(C)C)NC1=O", "logD": -1.26}
{"SMILES": "CC(C)C[C@@H]1NC(=O)[C@H](C)NC(=O)[C@H](Cc2cscn2)NC(=O)[C@H](CCC(=O)N2CCCC2)NC(=O)[C@H](CC(C)C)NC(=O)[C@H](CC(C)C)NC(=O)[C@@H](C(C)C)NC1=O", "logD": -2.08}
{"SMILES": "CC(C)C[C@@H]1NC(=O)[C@H](C)NC(=O)[C@@H](CC(C)C)NC(=O)[C@H](C)NC(=O)[C@H](C(C)C)NC(=O)[C@H](CC(C)C)NC(=O)[C@@H](CC(C)C)NC1=O", "logD": -0.73}
{"SMILES": "CCC[C@H]1NC(=O)CSC[C@@H](C(=O)OCC)N(C)C(=O)[C@H](CC(C)C)NC(=O)[C@@H](C)N(C)C(=O)[C@H](CC(C)C)NC(=O)[C@H](C)N(C)C(=O)[C@@H]2CCCN2C(=O)[C@@H](CC(C)C)NC(=O)CN(CCC)C1=O", "logD": 0.311}
{"SMILES": "CC(C)C[C@@H]1NC(=O)[C@H](CC(C)C)NC(=O)[C@H](CC(C)C)NC(=O)[C@H](Cc2cscn2)NC(=O)[C@@H](Cc2cscn2)NC(=O)[C@H](Cc2cscn2)NC(=O)[C@H](CCC(=O)N2CCCC2)NC1=O", "logD": -2.08}
{"SMILES": "CC(C)C[C@@H]1NC(=O)[C@H](Cc2cscn2)NC(=O)[C@H](C)NC(=O)[C@H](CC(C)C)NC(=O)[C@@H](CCC(=O)N2CCCC2)NC(=O)[C@H](CC(C)C)NC(=O)[C@@H](CC(C)C)NC1=O", "logD": -1.3}
{"data": "Study 2", "SMILES": "O=C(Nc1cnn(-c2csc(C(=O)NC3COC3)c2)c1)Nc1ccccc1Cl", "read-out": "enzyme activity", "concentration": "5 µM"}
{"target": "Ephrin type-A receptor 4 (EPHA4, Homo sapiens, UniProt P54764)", "reference": "untreated control", "remaining activity": "98.2%"}
{"target": "Dual specificity tyrosine-phosphorylation-regulated kinase 1B (DYRK1B, Homo sapiens, UniProt Q9Y463)", "reference": "untreated control", "remaining activity": "86.6%"}
{"target": "Tyrosine-protein kinase Lyn (LYN, Homo sapiens, UniProt P07948)", "reference": "untreated control", "remaining activity": "94.4%"}
{"target": "Tyrosine-protein kinase Fer (FER, Homo sapiens, UniProt P16591)", "reference": "untreated control", "remaining activity": "100%"}
{"target": "Serine/threonine-protein kinase Nek8 (NEK8, Homo sapiens, UniProt Q86SG6)", "action": "inhibitor", "remaining activity": "107%"}
{"data": "Study 3", "SMILES": "Cc1cc(NC(=O)c2cccc(S(F)(F)(F)(F)F)c2)cc(-n2ccn3nc(-c4cccnc4)cc23)c1", "concentration": "1 µM"}
{"target": "Aurora kinase C (AURKC, Homo sapiens, UniProt Q9UQB9)", "read-out": "cell-free assay", "technique": "competition with immobilised ligand", "remaining binding [%]": 86.7}
{"target": "Dual specificity protein kinase TTK (TTK, Homo sapiens, UniProt P33981)", "read-out": "cell-free assay", "technique": "competition with immobilised ligand", "remaining binding [%]": 44.8}
{"target": "AP2-associated protein kinase 1 (AAK1, Homo sapiens, UniProt Q2M2I8)", "read-out": "binding", "remaining binding [%]": 100}
{"target": "Wee1-like protein kinase (WEE1, Homo sapiens, UniProt P30291)", "read-out": "cell-free assay", "technique": "competition with immobilised ligand", "remaining binding [%]": 100}
{"target": "Phosphatidylinositol 4,5-bisphosphate 3-kinase catalytic subunit alpha isoform (PIK3CA, Homo sapiens, UniProt P42336, E542K)", "read-out": "cell-free assay", "technique": "competition with immobilised ligand", "remaining binding [%]": 75.2}
{"target": "RAC-beta serine/threonine-protein kinase (AKT2, Homo sapiens, UniProt P31751)", "read-out": "cell-free assay", "technique": "competition with immobilised ligand", "remaining binding [%]": 82.5}
{"target": "Receptor-type tyrosine-protein kinase FLT3 (FLT3, Homo sapiens, UniProt P36888, D835V/ITD)", "read-out": "cell-free assay", "technique": "competition with immobilised ligand", "remaining binding [%]": 66.1}
{"target": "Myotonin-protein kinase (DMPK, Homo sapiens, UniProt Q09013)", "read-out": "cell-free assay", "technique": "competition with immobilised ligand", "remaining binding [%]": 100}
{"target": "Casein kinase I isoform alpha-like (CSNK1A1L, Homo sapiens, UniProt Q8N752)", "read-out": "cell-free assay", "technique": "competition with immobilised ligand", "remaining binding [%]": 100}
{"target": "Hepatocyte growth factor receptor (MET, Homo sapiens, UniProt P08581, M1250T)", "read-out": "cell-free assay", "technique": "competition with immobilised ligand", "remaining binding [%]": 83.2}
{"target": "Ribosomal protein S6 kinase alpha-2, N-terminal kinase domain (RPS6KA2, Homo sapiens, UniProt Q15349)", "read-out": "cell-free assay", "technique": "competition with immobilised ligand", "remaining binding [%]": 84}
{"target": "Ephrin type-A receptor 8 (EPHA8, Homo sapiens, UniProt P29322)", "read-out": "cell-free assay", "technique": "competition with immobilised ligand", "remaining binding [%]": 100}
{"target": "Casein kinase II subunit alpha' (CSNK2A2, Homo sapiens, UniProt P19784)", "read-out": "cell-free assay", "technique": "competition with immobilised ligand", "remaining binding [%]": 100}
{"target": "MAP kinase-interacting serine/threonine-protein kinase 2 (MKNK2, Homo sapiens, UniProt Q9HBH9)", "read-out": "cell-free assay", "technique": "competition with immobilised ligand", "remaining binding [%]": 85.2}
{"target": "Dual specificity mitogen-activated protein kinase kinase 1 (MAP2K1, Homo sapiens, UniProt Q02750)", "read-out": "cell-free assay", "technique": "competition with immobilised ligand", "remaining binding [%]": 100}
{"target": "Serine/threonine-protein kinase 32C (STK32C, Homo sapiens, UniProt Q86UX6)", "read-out": "cell-free assay", "technique": "competition with immobilised ligand", "remaining binding [%]": 75.8}
{"target": "Tyrosine-protein kinase ABL1, non-phosphorylated (ABL1, Homo sapiens, UniProt P00519, F317L)", "read-out": "cell-free assay", "technique": "competition with immobilised ligand", "remaining binding [%]": 100}
{"target": "Dual specificity tyrosine-phosphorylation-regulated kinase 1B (DYRK1B, Homo sapiens, UniProt Q9Y463)", "read-out": "cell-free assay", "technique": "competition with immobilised ligand", "remaining binding [%]": 61.2}
{"data": "Study 4", "cell line": "mouse MPNST tumor cells", "technique": "high-content nuclear imaging", "item": "cell number", "concentration": "10 µM", "time": "12 h", "notes": "mean of 2 replicates", "reference": "plate mean", "direction": "higher = more cells"}
{"Compound": "O=C(OCC(O)CO)c1ccccc1Nc1ccnc2cc(Cl)ccc12 (stereo not drawn)", "nuclei count [z-score]": 1.9}
{"Compound": "O=C(NCCN1CCC(n2c(=O)[nH]c3ccccc32)CC1)c1cc2cc(F)ccc2[nH]1", "nuclei count [z-score]": 2.85}
{"Compound": "Cc1cc(-n2nc(Cc3cc(F)cc(C(F)(F)F)c3)nc2C)ccc1C(N)=O", "nuclei count [z-score]": 1.52}
{"Compound": "CC1(C)CCC(C)(C)c2cc(C(O)C(=O)Nc3ccc(C(=O)O)cc3F)ccc21 (stereo not drawn)", "nuclei count [z-score]": -1.13}
{"Compound": "N#Cc1c[nH]c2c(C(=O)N3CCN(CCc4ccc(F)cc4)CC3)cccc12", "nuclei count [z-score]": 0.072}
{"Compound": "CC(C)(O/N=C(\\C(=O)N[C@@H]1C(=O)N2C(C(=O)[O-])=C(C[n+]3ccccc3)CS[C@H]12)c1csc(N)n1)C(=O)O", "nuclei count [z-score]": -0.319}
{"note": "Repeated from above (study 3):"}
{"target": "Ribosomal protein S6 kinase alpha-2, N-terminal kinase domain (RPS6KA2, Homo sapiens, UniProt Q15349)", "read-out": "cell-free assay", "technique": "competition with immobilised ligand", "remaining binding [%]": 84}
{"target": "Casein kinase I isoform alpha-like (CSNK1A1L, Homo sapiens, UniProt Q8N752)", "read-out": "cell-free assay", "technique": "competition with immobilised ligand", "remaining binding [%]": 100}
{"target": "Casein kinase II subunit alpha' (CSNK2A2, Homo sapiens, UniProt P19784)", "read-out": "cell-free assay", "technique": "competition with immobilised ligand", "remaining binding [%]": 100}
{"target": "Receptor-type tyrosine-protein kinase FLT3 (FLT3, Homo sapiens, UniProt P36888, D835V/ITD)", "read-out": "cell-free assay", "technique": "competition with immobilised ligand", "remaining binding [%]": 66.1}
